Results of several laboratories.
Each line is one published result; not all experiments were run side by side. ± gives the spread as reported.

`navitoclax` has an IC50 of 0.049 µM (RS4;11; cell viability, MTS; 48 h).
With `Nc1nc2[nH]c(CCCc3ccc(C(=O)N[C@@H](CC(=O)O)C(=O)O)s3)cc2c(=O)[nH]1` the IC50 was over 1 µM (CHO RT16 (human FRα); cell growth; with: folic acid 200 nM).
With `CC(C)=CCC/C(C)=C/CC/C(C)=C/CC[C@]1(C)CCc2cc(O)cc(C)c2O1` the IC50 was 8 µM (differentiated HL-60; LTB4 formation; 10 min preincubation, with: thapsigargin).
The IC50 of `C=CC(C)(CO)c1cc(CC(=O)c2ccc(O)cc2O)c(O)cc1O` (centres unmarked) is reported as over 100 µM (Hepa-1c1c7; cell growth or viability).
Under “minimal effective dose”, `COc1ccc(-c2nc3ccccc3s2)cc1OCc1nnc(-c2cc([N+](=O)[O-])cc([N+](=O)[O-])c2O)o1` is recorded as 30 mg/kg (seizure protection; albino mouse, scPTZ-induced seizure; ip, 4.0 h).
The IC50 of `O=C(COc1ccc(-c2nc3ccc(F)cc3[nH]2)cc1F)N1CCOCC1` is reported as over 100 µM (Z-138; cell growth or viability, MTS; 72 h).
With `CCC(=O)C(=NNc1ccc(S(=O)(=O)Nc2ncccn2)cc1)C(C)=O` the IC50 was 18.2 µM (A-431; cell growth or viability, MTT; 48 h).
The IC50 of `CC(C)=CCOc1c2occc2cc2ccc(=O)oc12` is reported as 31.2 ± 2.8 µM (human neutrophils; calcium mobilization; 30 min, with: fMLF 5 nM).
`COc1cc(C(=O)c2cc3cc(F)ccc3[nH]2)cc(OC)c1OC` gave an IC50 of 4.4 µM (A-375, WM164, LNCaP, PC-3, DU-145, PPC-1; cell growth).
For `CC[C@]1(O)C[C@H]2CN(CCc3c([nH]c4ccccc34)[C@@](C(=O)OC)(c3cc4c(cc3OC)N(C=O)[C@H]3[C@@](O)(C(=O)OC)[C@H](OC(C)=O)[C@]5(CC)C=CCN6CC[C@]43[C@@H]65)C2)C1`, the IC50 was 0.063 µM (iPSC-derived sensory neurons; neurite length, high-content imaging; 48 h).
`N=C(N)NCCC[C@H](NC(=O)[C@H](CCCNC(=N)N)NC(=O)[C@H](Cc1c[nH]c2ccccc12)NC(=O)[C@H](CCC(N)=O)NC(=O)[C@H](Cc1c[nH]c2ccccc12)NC(=O)[C@H](CCCNC(=N)N)NC(=O)[C@H](Cc1c[nH]c2ccccc12)NC(=O)[C@H](CCC(N)=O)NC(=O)[C@H](Cc1c[nH]c2ccccc12)NC(=O)[C@@H](N)CCCNC(=N)N)C(N)=O` has an IC50 of 76 µM (MCF-12; cell viability, MTT; 2 h).
For `c1ccc2[nH]c(-c3ccc(OCc4cn(CCN5CCOCC5)nn4)cc3)nc2c1`, the IC50 was 45.8 µM (Z-138; cell growth or viability, MTS; 72 h).
`CC(C)C[C@H](NC(=O)CNC(=O)Cc1c(F)c(F)c(F)c(F)c1F)C(=O)[C@@]1(C)CO1` gave an IC50 of over 10 µM (NCI-H460; cell growth or viability).
`Cn1c(-c2ccc(C(N)=O)cc2F)nnc1C(C)(C)Oc1c(F)cc(Cl)cc1F` gave a median AUC(0-tau) of 219 ng·h/mL (young non-Japanese humans, plasma; oral, 2 mg once daily, last day of 14 days).
The IC50 of `O=C(N=P12CN3CN(CN(C3)C1)C2)c1ccccc1Br` is reported as over 500 µM (Jurkat; cytotoxicity, MTT; 24 h, 1% DMSO).
The IC50 of `N#CC(=NNc1ccc(S(=O)(=O)Nc2ncccn2)cc1)C(N)=S` is reported as 18.2 µM (A-431; cell growth or viability, MTT; 48 h).
For `O=c1[nH]c2ccccc2nc1/C=C/c1ccccc1`, the IC50 was 13.7 µM (NCI-H460; cell growth or viability, MTT; 72 h).
The IC50 of `CC(C)c1cccc(C(C)C)c1-n1ccn(-c2c(C(C)C)cccc2C(C)C)[c]1=[Ag][Se]c1ccccc1` is reported as 6 ± 0.7 µM (Vero E6; cytotoxicity, crystal violet staining; 96 h).
`COc1cccc2c1C(=O)c1c(O)c3c(c(O)c1C2=O)C[C@@](O)(C(=O)CO)C[C@@H]3O[C@H]1C[C@H](N)[C@@H](O)[C@H](C)O1` has an IC50 of 6.6 µg/mL (HCT-15/ADM2; cell growth, XTT; 72 h).
`CCC(CC)c1cc(CCN2CCCN(Cc3ccc(C(F)(F)F)cc3)CC2)nc(-c2ccncc2)n1` has an IC50 of 8 µM (L929; cell growth or viability, MTS; 72 h).
The IC50 of `CNC(=O)c1cc(Oc2ccc(NC(=O)Nc3ccc(Cl)c(C(F)(F)F)c3)cc2)ccn1` is reported as over 3 µM (LMC-3 with DHFR overexpression; cell viability, MTT).
With `CS(=O)(=O)CCNCc1ccc(-c2ccc3ncnc(Nc4ccc(OCc5cccc(F)c5)c(Cl)c4)c3c2)o1` the IC50 was 0.373 ± 0.0355 µM (NCI-N87; cell growth, inhibitor; 2% serum albumin).
For `COc1cc([C@@H]2c3cc4c(cc3[C@@H](O[C@@H]3O[C@@H]5CO[C@@H](C)O[C@H]5[C@H](O)[C@H]3O)[C@H]3COC(=O)[C@H]23)OCO4)cc(OC)c1O`, the IC50 was 0.7 µM (Z-138; cell growth or viability, MTS; 72 h).
`O=C(Cn1cc(COc2ccc(/C=N\Nc3ccc([N+](=O)[O-])cc3[N+](=O)[O-])cc2)nn1)Nc1nc2ccccc2s1` gave an IC50 of 95 µM (T47D; cell growth or viability, MTT; 48 h).
`C[C@H](Cn1cnc2c(N)ncnc21)OCP(=O)(O)O` gave an IC50 of 210 µM (HepG2.A64, entecavir-resistant; cell growth; 96 h).
The IC50 of `C=C1C(=O)O[C@H]2[C@H]1CC/C(C)=C/CC[C@@]1(C)O[C@@H]21` is reported as 11.4 ± 2.4 µM (NCI/ADR-RES; cell growth, inhibitor, Alamar blue).
For `Cn1c(=O)c(/C=C/c2ccccc2Cl)nc2ccccc21`, the IC50 was 9.95 µM (B16-F10; cell growth or viability, MTT; 72 h).
`C=C1CCC[C@]2(C)CC[C@@H](C(C)(C)O)C[C@@H]12` has an IC50 of 16.8 µg/mL (HuCCT-1; cell growth or viability, MTT; 72 h).
`C(=C\c1ccccc1)/c1ccccc1` has an IC50 of 163 µM (Jurkat; cell growth or viability, ATP luminescence; 24 h).
`OC[C@H]1O[C@@H](Oc2cc3c(O)cc(O)cc3[o+]c2-c2ccc(O)c(O)c2)[C@H](O[C@@H]2OC[C@@H](O)[C@H](O)[C@H]2O)[C@@H](O)[C@@H]1O` has an IC50 of over 100 µM (Hepa-1c1c7; cell growth or viability).
`CN(C)CCn1cnc2ccc(-c3ccc4sc(NC(=O)Nc5ccc(F)cc5)nc4c3)cc2c1=O` has an IC50 of 1.28 µM (BEAS-2B; cell growth or viability, MTT; 72 h).
For `Clc1ccc2nc(-c3ccc(OCc4cn(CCN5CCOCC5)nn4)cc3)[nH]c2c1`, the IC50 was 55.7 µM (Z-138; cell growth or viability, MTS; 72 h).
The IC50 of `COc1cc(F)c([C@@H]2CNC(=O)[C@H]2NC(=O)Nc2ccccc2)c(F)c1` is reported as 0.021 µM (differentiated HL-60; chemotaxis, antagonist; with: serum amyloid A 0.8 µM).
The IC50 of `O=c1c(/C=C/c2ccccc2)nc2ccccc2n1Cc1ccccc1` is reported as 14.6 µM (NCI-H460; cell growth or viability, MTT; 72 h).
The IC50 of `O=C1Nc2ccccc2C1=Cc1cc2ccc(Cl)cc2nc1Cl` is reported as 49.1 µM (OV2008; cell viability, MTT; 72 h).
For `COC(=O)C[C@](O)(CCCC(C)(C)O)C(=O)O[C@@H]1C(OC)=C[C@]23CCCN2CCc2cc4c(cc2[C@H]13)OCO4`, the IC50 was 0.05 µM (P388; cytotoxicity).
The IC50 of `COC(=O)[C@]12CCCC(C)(C)[C@@H]1CC[C@@]1(C)[C@@H]3CC=C(C(C)=O)[C@H](C=O)[C@@]3(C)C(=O)C[C@@H]12` is reported as over 30 µM (T47D; luciferase reporter gene; 16 h, hypoxia 1% O2, with: pGL3-Control construct).
`O=c1[nH]c2ccccc2nc1/C=C/c1ccccc1F` has an IC50 of 11.6 µM (B16-F10; cell growth or viability, MTT; 72 h).
For `Cc1ccc2nc(NC(=O)Cn3cc(COc4ccc(/C=N/NC(=O)c5ccccc5)cc4)nn3)sc2c1`, the IC50 was 17 µM (T47D; cell viability, MTT; 48 h).
For `CN(C)C/C=C/C(=O)Nc1cc2c(Nc3ccc(F)c(Cl)c3)ncnc2cc1O[C@H]1CCOC1`, the IC50 was under 0.1 µM (A-431; cell viability, CellTiter-Glo; 72 h).
With `O=Cc1ccc(CO)o1` the IC50 was over 100 µM (Hepa-1c1c7; cell growth or viability).
With `Cn1c(=O)c(/C=C/c2ccccn2)nc2ccccc21` the IC50 was 6.64 µM (B16-F10; cell growth or viability, MTT; 72 h).
`COc1cccc2c1C(=O)c1c(O)c3c(c(O)c1C2=O)C[C@@](O)(C(=O)CO)C[C@@H]3O[C@H]1C[C@H](N)[C@H](O)[C@H](C)O1` gave an IC50 of 6 µM (T47D; cell growth or viability, MTT; 48 h).
`O=C(COc1ccc(-c2nc3ccc(F)cc3[nH]2)cc1)N1CCOCC1` has an IC50 of over 100 µM (Z-138; cell growth or viability, MTS; 72 h).
`O=c1[nH]c2ccccc2nc1/C=C/c1ccc2ccccc2c1` has an IC50 of 20.2 µM (NCI-H460; cell growth or viability, MTT; 72 h).
`C[C@]12CCC(=O)C=C1CC[C@@H]1[C@@H]2[C@@H](O)C[C@]2(C=O)[C@@H](C(=O)CO)CC[C@@H]12` has an IC50 of 9e-05 µM (GPER-transduced Sf9; ERK phosphorylation, inhibitor, immunoblotting; 15 min).
With `O=c1[nH]c2ccccc2nc1/C=C/c1ccco1` the IC50 was over 50 µM (NCI-H460; cell growth or viability, MTT; 72 h).
`C[C@@H]1C[C@H]2[C@@H]3CCC4=CC(=O)C=C[C@]4(C)[C@@]3(F)[C@@H](O)C[C@]2(C)[C@@]1(O)C(=O)CO` has an IC50 of 1920 µM (ReNcell VM; cell viability, live/dead 3D alginate microarray; 24 h exposure plus 48 h).
`CC(C)C[C@H](NC(=O)[C@@H](NC(=O)[C@@H]1CCCN1C(=O)[C@@H](NC(=O)[C@H](CO)NC(=O)[C@@H](NC(=O)[C@H](CCC(N)=O)NC(=O)[C@@H]1CCCN1C(=O)[C@@H](NC(=O)[C@H](CCCCN)NC(=O)[C@H](CCCCN)NC(=O)[C@@H](NC(=O)[C@H](Cc1ccc(O)cc1)NC(=O)[C@H](CCCNC(=N)N)NC(=O)[C@@H](NC(=O)[C@@H](N)CC(C)C)C(C)C)[C@@H](C)O)C(C)C)C(C)C)[C@@H](C)O)[C@@H](C)O)C(=O)O` has an IC50 of 67.6 ± 30.6 µM (SUP-T1; AKT phosphorylation, inhibitor, phosphoflow cytometry; with: CXCL12 100 ng/mL, 2 min).
For `CC(=O)O[C@H]1C(=O)[C@@]2(C)[C@H]([C@H](OC(=O)c3ccccc3)[C@]3(O)C[C@H](OC(=O)[C@H](O)[C@@H](NC(=O)c4ccccc4)c4ccccc4)C(C)=C1C3(C)C)[C@]1(OC(C)=O)CO[C@@H]1C[C@@H]2O`, the IC50 was over 20 µM (HCT-8/T (compound-resistant); cell viability, CCK-8; 72 h).
For `O=c1[nH]c2ccccc2nc1/C=C/c1ccc(C(F)(F)F)cc1`, the IC50 was 8.76 µM (B16-F10; cell growth or viability, MTT; 72 h).
The IC50 of `CC(C)c1cccc(C(C)C)c1-n1ccn(-c2c(C(C)C)cccc2C(C)C)[c]1=[Au][Se]c1ccccc1` is reported as 7.1 ± 0.6 µM (Vero E6; cytotoxicity, crystal violet staining; 96 h).
With `CN(C)CC[C@H](CSc1ccccc1)Nc1ccc(S(=O)(=O)NC(=O)c2ccc(N3CCN(Cc4ccccc4-c4ccc(Cl)cc4)CC3)cc2)cc1[N+](=O)[O-]` the IC50 was 5.1 µM (mouse p185+ Arf-/- B-ALL cells; cell viability, CellTiter-Glo; 24 h).

A few entries again:
`CC(C)C[C@H](NC(=O)[C@@H](NC(=O)[C@@H]1CCCN1C(=O)[C@@H](NC(=O)[C@H](CO)NC(=O)[C@@H](NC(=O)[C@H](CCC(N)=O)NC(=O)[C@@H]1CCCN1C(=O)[C@@H](NC(=O)[C@H](CCCCN)NC(=O)[C@H](CCCCN)NC(=O)[C@@H](NC(=O)[C@H](Cc1ccc(O)cc1)NC(=O)[C@H](CCCNC(=N)N)NC(=O)[C@@H](NC(=O)[C@@H](N)CC(C)C)C(C)C)[C@@H](C)O)C(C)C)C(C)C)[C@@H](C)O)[C@@H](C)O)C(=O)O` has an IC50 of 67.6 ± 30.6 µM (SUP-T1; AKT phosphorylation, inhibitor, phosphoflow cytometry; with: CXCL12 100 ng/mL, 2 min).
`C=C1CCC[C@]2(C)CC[C@@H](C(C)(C)O)C[C@@H]12` has an IC50 of 16.8 µg/mL (HuCCT-1; cell growth or viability, MTT; 72 h).
`O=C(COc1ccc(-c2nc3ccc(F)cc3[nH]2)cc1)N1CCOCC1` has an IC50 of over 100 µM (Z-138; cell growth or viability, MTS; 72 h).
`Cn1c(-c2ccc(C(N)=O)cc2F)nnc1C(C)(C)Oc1c(F)cc(Cl)cc1F` gave a median AUC(0-tau) of 219 ng·h/mL (young non-Japanese humans, plasma; oral, 2 mg once daily, last day of 14 days).
With `O=Cc1ccc(CO)o1` the IC50 was over 100 µM (Hepa-1c1c7; cell growth or viability).
